# Results of several laboratories.
# Numbered parts are unrelated; each lists some results of a single study. Substitutions count along the parent as printed.

# Series 1
# Target: Histone acetyltransferase KAT6A, both winged helices, GST fusion (KAT6A, Homo sapiens, UniProt Q92794, residues 1-181)
# Method: protein binding microarray
# Molecule type: double-stranded DNA, one strand shown
# Medium: in vitro
# Tested at: not given
# Setting: 8-mer, flanks averaged, mean of 2 arrays, mostly near background
# Baseline: not given
# Direction: higher = stronger binding
# Residues (chain): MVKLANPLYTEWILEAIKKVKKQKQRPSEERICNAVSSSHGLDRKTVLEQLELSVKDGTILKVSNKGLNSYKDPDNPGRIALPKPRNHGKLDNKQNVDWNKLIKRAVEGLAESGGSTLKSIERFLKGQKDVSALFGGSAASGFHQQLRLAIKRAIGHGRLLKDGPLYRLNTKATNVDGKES
Sequence,E-score
GGACGACC,0.0391
AACGAAAC,0.02
ATAGTAGA,-0.224
CCCAATAG,-0.277
GACTCAAA,-0.152
AGAGTGGG,-0.156
AGACGCCC,0.187
CAATAAGG,-0.184
CAAAGAGC,-0.0405
CATCGATG,0.0216
CTAAAAAC,0.0968
CCTTCATC,-0.188
TACATTGA,-0.0979
AGGGTACC,-0.0738

# Series 2
# Target: Protein C-ets-1 (ETS1, Homo sapiens, UniProt P14921, residues 1-441, Y397A, full length assumed)
# UniProt P14921, sequence (whole entry, unmodified, looked up): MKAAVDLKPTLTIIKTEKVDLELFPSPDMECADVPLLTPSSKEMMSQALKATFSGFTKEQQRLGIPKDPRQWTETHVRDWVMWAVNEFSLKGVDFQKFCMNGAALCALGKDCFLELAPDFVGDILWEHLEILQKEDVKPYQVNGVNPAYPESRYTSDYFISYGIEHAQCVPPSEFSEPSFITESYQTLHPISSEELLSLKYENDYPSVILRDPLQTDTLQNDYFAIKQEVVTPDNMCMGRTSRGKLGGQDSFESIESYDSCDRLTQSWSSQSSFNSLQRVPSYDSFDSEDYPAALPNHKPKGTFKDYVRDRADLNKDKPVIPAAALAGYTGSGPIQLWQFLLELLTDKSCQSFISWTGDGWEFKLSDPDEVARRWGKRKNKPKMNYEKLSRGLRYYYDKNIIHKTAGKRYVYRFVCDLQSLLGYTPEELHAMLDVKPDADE
# Method: protein-binding microarray
# Molecule type: double-stranded DNA, one strand shown
# Medium: in vitro
# Tested at: not given
# Setting: k-mer, scored over probes, only values ≥0.25
# Direction: higher = stronger binding
Sequence,E-score
CATCCGTA,0.283
CATTGTCA,0.341
AATGACAC,0.299
ACTTCCTG,0.408
GCATCCGC,0.295
GTTGTCAA,0.286
CAATTGAC,0.31
GCACATCC,0.295
TGTGGCAA,0.256
TGGCACAA,0.268
ACAATGTC,0.262
ATTTGCCG,0.259
CTTCCGAC,0.332
GACCGGAA,0.339

# Series 3
# Target: Phosphate system positive regulatory protein PHO4, full length, GST-tagged (PHO4, Saccharomyces cerevisiae, UniProt P07270, residues 1-312)
# Method: competition protein-binding microarray
# Molecule type: double-stranded DNA, one strand shown
# Medium: in vitro
# Tested at: 2 µM
# Setting: whole 60-bp probe, lowest competitor level
# Together with: Cbf1 competitor, 0.05 µM
# Direction: higher = stronger binding
# Shared flanks, not repeated: … GTCTTGATTCGCTTGACGCTGCTG
# Construct (chain): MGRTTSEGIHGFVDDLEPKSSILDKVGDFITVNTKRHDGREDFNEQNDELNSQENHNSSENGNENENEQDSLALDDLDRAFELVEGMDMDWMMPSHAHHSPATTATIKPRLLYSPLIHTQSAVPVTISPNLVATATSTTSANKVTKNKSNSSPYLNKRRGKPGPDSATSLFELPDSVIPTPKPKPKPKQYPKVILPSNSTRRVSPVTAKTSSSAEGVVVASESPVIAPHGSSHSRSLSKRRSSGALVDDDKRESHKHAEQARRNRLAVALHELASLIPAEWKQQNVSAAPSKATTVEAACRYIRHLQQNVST
Sequence,fluorescence intensity [a.u.]
CGGGGTTAAGTTTGCTACGTGGGTGGCTTGCAGCAG,7600
AAGACCGTATGGGAACACGTGGAGGATTAGGCTCGC,18100
CTAACGAAGGTTTTTCACGTGATTTACAAGCCAAGT,10700
CATTCAATTCCGAGTCACGTGGGTAAATGATAATGG,18400
GGCAAAATCAATCTTGACGTGCCAGATATGTTAAAA,5850
TGCGCAACAACTTGCTCCGTGGGTGTATGTCTAGAA,5850
CGCCTACAACTTTGGCGCGTGAGCCAAGTGTCTTCT,6860
ACCGAGGACCAGGCCCATGTGGCAGAGTAGCTGCTG,11300
CTTTCCCGATCTTGTCACGACACTTTAGCACATTTG,5840
CCCACTTGTCTTCGATGCGTGCTTTTGCCAATCAAC,8980
TGGTTGAGTTTTACCCACGATACCGATATTCTGAAC,8090
AGTCCTTTTCTTATGCTCGTGGTGATTGTCAGTCTT,10700

# Series 4
# Target: ABI1, truncated, D143A, DHFR fusion (Arabidopsis thaliana)
# Method: DHFR PCA, deep sequencing
# Medium: yeast
# Setting: methotrexate growth selection, single substitutions
# Together with: (+)-ABA 0.39 µM
# Baseline: wild-type fitted maximum
# Direction: higher = stronger binding
# Parent: PYL1, truncated, DHFR fusion (Arabidopsis thaliana); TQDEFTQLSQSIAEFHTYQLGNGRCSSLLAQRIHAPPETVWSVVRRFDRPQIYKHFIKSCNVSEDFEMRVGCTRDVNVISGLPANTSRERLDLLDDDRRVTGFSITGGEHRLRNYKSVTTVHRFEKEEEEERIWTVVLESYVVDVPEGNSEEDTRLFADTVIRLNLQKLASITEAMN
Variant,relative binding score
E67V,52.7%
F103M,-3.59%
T173V,30.6%
L82C,12.5%
I172G,-20%
E130L,28.4%
V145P,-16.8%
N85K,72.5%
H34C,54.7%
V137F,2.2%
E89D,-1.94%
F66S,11.1%
S59D,40.7%
R98K,46.8%
R113V,37.5%
S42W,4.38%
Q7Y,43.1%
Q7M,41.7%

# Series 5
# Target: PABPC1L2, full length, GST fusion (mouse, UniProt A0ABA7IW68)
# Method: RNAcompete
# Molecule type: RNA
# Medium: in vitro
# Tested at: 20 nM
# Setting: 7-mer, probes averaged, single round
# Baseline: mean of 7-mers
# Direction: higher = stronger binding
# Residues (chain): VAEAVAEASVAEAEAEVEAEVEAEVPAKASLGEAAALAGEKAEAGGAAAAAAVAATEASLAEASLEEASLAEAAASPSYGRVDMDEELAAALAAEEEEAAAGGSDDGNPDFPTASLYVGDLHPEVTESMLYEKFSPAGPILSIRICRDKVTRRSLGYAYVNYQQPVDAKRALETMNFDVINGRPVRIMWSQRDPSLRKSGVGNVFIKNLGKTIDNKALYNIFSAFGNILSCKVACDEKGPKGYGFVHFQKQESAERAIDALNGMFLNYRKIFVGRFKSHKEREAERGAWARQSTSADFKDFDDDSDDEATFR
Sequence,7-mer Z-score
GUAAUUG,-0.0627
GGACAUG,0.129
UGGGAUC,0.0696
UUUCCUA,-0.287
GGGUUUC,-0.342
UUAAAAA,8.65
UCCUGGA,-0.135
AGAGACC,0.104
CAACACU,-0.0772
CUUAAGU,-0.32
GCCGGCC,-0.434
CAUAAGC,-0.0808
CGAGGAU,0.0225

# Series 6
# Target: Ras GTPase-activating protein-binding protein 1, RRM domain (G3BP1, Homo sapiens, UniProt Q13283)
# UniProt Q13283, sequence (whole entry, looked up): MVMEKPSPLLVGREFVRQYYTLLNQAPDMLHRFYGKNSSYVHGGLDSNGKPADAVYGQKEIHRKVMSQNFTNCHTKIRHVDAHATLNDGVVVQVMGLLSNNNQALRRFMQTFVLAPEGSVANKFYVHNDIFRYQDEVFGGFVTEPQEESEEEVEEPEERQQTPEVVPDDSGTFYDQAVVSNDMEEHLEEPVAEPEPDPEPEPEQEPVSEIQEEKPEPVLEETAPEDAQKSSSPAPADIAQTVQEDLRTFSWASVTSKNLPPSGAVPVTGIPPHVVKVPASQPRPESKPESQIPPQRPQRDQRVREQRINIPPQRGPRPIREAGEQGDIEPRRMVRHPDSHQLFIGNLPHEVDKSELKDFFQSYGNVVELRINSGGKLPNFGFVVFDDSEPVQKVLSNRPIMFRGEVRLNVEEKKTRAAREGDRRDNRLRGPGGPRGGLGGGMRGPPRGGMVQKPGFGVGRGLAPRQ
# Method: RNA Bind-n-Seq
# Molecule type: RNA
# Medium: in vitro
# Tested at: 1 µM
# Setting: whole 134-nt RNA, ends assumed
# Together with: 150 mM KCl
# Baseline: input library
# Direction: higher = stronger binding
# Shared flanks, not repeated: GGGAGUUCUACAGUCCGACGAUC … UGGAAUUCUCGGGUGUCAAGG
Sequence,log2 enrichment
UUCAACAACUAGUACUGCUUCAAAUUAUCCAGAUGUGUUAACAAGGCCUUCUCUUCAUCGGAGCCAUCUGAAUUUUUCCAUGUUGGAAUC,-0.00783
UCCUGUGCUACACAUCGUAUGUACCGAAUCGGGCCCCCCCGGCCCCCCCGGCCCCCCCGGAAAGUAUUAUGUUACGCCGUUCGGAUCUGC,-0.524
ACCAUGCAGGUGGGCAUCUUUGGGAAGUGGGGCAAGGGGGGGAUAGGGAGGGGGGUAACACUUUGGGAACAGGUGGUCCCAGGUCGAUUC,0.24
CACAGACAACACGCAACCACACAGACACAGAGGGAAGGGGUUGGGAUGGGGACAGGGUGCACAGCAGGGCGGGGUAGGACCCCAGCCCCU,-0.0581
UCAAGUCCUGUGCUACACAUCGUAUGUACCGAAUCGGUUUGGUUUUUUUGGUGGAAAGUAUUAUGUUACGCCGUUCGGAUCUGCACUUCC,-0.235
CCUGUGCUACACAUCGUAUGUACCGAAUCGGGCCCCCCCGGGCCCCCCCGGCCCCCCCGGGAAAGUAUUAUGUUACGCCGUUCGGAUCUG,-0.638
UCCUGUGCUACACAUCGUAUGUACCGAAUCGGGGAAAGGGGUUUGGGGAAAAAAAGGGGAAAGUAUUAUGUUACGCCGUUCGGAUCUGCA,0.77
UCCUGUGCUACACAUCGUAUGUACCGAAUCAAACCCCCAAACCCCCAAACCCCCCCAAAAAAGUAUUAUGUUACGCCGUUCGGAUCUGCA,-0.186

# Series 7
# Target: Sal-like protein 4, full length isoform A (SALL4, Homo sapiens, UniProt Q9UJQ4, residues 1-1053)
# UniProt Q9UJQ4, sequence (whole entry, looked up): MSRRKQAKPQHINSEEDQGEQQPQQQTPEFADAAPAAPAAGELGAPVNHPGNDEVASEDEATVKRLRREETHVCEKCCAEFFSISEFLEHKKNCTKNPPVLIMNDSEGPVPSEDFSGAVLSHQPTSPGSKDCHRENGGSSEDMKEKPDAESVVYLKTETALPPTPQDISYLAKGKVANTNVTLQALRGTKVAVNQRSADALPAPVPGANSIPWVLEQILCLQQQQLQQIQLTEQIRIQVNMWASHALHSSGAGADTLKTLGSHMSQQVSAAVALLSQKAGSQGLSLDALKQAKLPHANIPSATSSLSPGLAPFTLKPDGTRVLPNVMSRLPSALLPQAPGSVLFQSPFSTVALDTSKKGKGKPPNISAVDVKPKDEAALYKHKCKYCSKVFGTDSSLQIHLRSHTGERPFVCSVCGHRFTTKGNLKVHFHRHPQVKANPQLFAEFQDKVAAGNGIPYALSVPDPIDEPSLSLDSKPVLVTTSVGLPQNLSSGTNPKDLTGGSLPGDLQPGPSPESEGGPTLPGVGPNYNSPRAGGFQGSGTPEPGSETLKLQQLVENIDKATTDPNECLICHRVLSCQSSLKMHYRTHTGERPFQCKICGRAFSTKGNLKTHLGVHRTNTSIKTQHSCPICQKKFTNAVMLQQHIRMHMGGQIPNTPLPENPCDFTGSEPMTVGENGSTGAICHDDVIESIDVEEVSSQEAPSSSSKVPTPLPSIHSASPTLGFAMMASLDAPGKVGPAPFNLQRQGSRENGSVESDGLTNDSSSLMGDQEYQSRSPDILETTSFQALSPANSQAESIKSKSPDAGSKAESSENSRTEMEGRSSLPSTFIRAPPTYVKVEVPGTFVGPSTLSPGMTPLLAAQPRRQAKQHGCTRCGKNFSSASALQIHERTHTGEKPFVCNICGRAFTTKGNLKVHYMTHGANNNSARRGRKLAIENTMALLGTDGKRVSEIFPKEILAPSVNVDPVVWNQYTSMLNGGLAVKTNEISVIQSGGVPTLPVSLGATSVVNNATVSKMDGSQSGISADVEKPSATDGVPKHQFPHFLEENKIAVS
# Method: universal PBM
# Molecule type: double-stranded DNA, one strand shown
# Medium: in vitro
# Tested at: 600 nM
# Setting: 8-mer, flanks averaged, mean of replicates
# Direction: higher = stronger binding
Sequence,E-score
ATCAATTA,0.351
AGAGCTTG,-0.0723
CGGGGAGA,-0.345
AAGGATAC,-0.117
ACGCCATC,-0.213
TCTTCTCA,0.118
CACAGAAA,0.012
ATCTAACA,0.141
AGAGCTCC,-0.339
GAATCAAC,0.123
AATGCAAG,0.175
CTCTTCAA,-0.0135
ATGATAGA,0.146
ATCTGGAC,-0.0605
GAGCAGCC,-0.313
AAAGGTAC,-0.00351
CTTATACA,0.249

# Series 8
# Target: Interferon regulatory factor 7, full length, phosphomimetic (IRF7, Homo sapiens, UniProt Q92985, residues 1-503, S471D/S472D/S475D/S476D/S477D/S483D/S484D/S487D)
# UniProt Q92985, sequence (whole entry, unmodified, looked up): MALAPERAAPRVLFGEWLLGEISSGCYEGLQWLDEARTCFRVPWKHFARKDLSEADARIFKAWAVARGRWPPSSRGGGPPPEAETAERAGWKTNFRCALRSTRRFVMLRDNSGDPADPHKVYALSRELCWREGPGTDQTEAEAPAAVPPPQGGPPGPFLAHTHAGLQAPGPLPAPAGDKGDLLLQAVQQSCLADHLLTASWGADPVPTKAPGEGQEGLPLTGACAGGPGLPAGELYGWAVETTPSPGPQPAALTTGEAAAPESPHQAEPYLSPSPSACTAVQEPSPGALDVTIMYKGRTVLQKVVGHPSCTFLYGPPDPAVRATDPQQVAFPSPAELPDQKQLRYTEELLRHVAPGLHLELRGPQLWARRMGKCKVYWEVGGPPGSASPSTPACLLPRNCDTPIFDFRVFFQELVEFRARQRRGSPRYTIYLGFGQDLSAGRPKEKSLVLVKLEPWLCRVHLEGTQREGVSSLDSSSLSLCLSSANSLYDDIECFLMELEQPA
# Method: protein-binding microarray
# Molecule type: double-stranded DNA, one strand shown
# Medium: in vitro
# Tested at: 2200 nM top
# Setting: 60-bp whole probe
# Together with: salmon DNA 0.4 mg/ml
# Baseline: random background probes
# Direction: higher = stronger binding
# Shared flanks, not repeated: GCCTAGCAC … GTCTTGATTCGCTTGACGCTGCTG
Sequence,fitted relative affinity [z-score]
GACGGACTGGGGACTGGGTACGTGCTA,-0.801
TGAGGTTTCGGGTATCGGTTAGTGCTA,5.63
TACGGACTGGACACTGGGGACGTGCTA,-0.771
GTCGATATCAGACTGGAGACGTGCTAG,0.476
GACGGTTTCCTACTGCTGACGTGCTAG,2.03
TTTCCTCTTTCTTTGCTTCAGTGCTAG,6.15
TCATCTTTCTGTCAGTTACTGTGCTAG,2.2
TCATTTTGGTTTCTGGTACTGTGCTAG,4.5
TTAGGACTGCCTCTCCTTTAGTGCTAG,0.606
GACAATCTCAGTATCGAGACGTGCTAG,0.047
GACGGTTTCCTACTCCTGACGTGCTAG,2.34
TTAGAACTGAATCTCGATTAGTGCTAG,-0.385

# Further values, each from its own experiment
# Molecule type: peptide
# Tested at: concentration not given
# Direction: direction not given
Molecule,tested on,assay,test system,setting,endpoint,result
GSPLKKLFTSTAL,human cyclin B2,"peptide binding, yeast competitive growth sequencing","Saccharomyces cerevisiae, cyclin B2-Cln2 fusion",combined libraries,binding enrichment score,-0.843
KLLPRKLQFFCDP,Saccharomyces cerevisiae,"binding, competitive growth deep sequencing",cyclin D3-Cln2 fusion strain,Cln2 score subtracted,growth enrichment score,-0.114

# A few entries again (series 8):
Sequence,fitted relative affinity [z-score]
TTAGGACTGCCTCTCCTTTAGTGCTAG,0.606
TGAGGTTTCGGGTATCGGTTAGTGCTA,5.63
TTTCCTCTTTCTTTGCTTCAGTGCTAG,6.15
GACGGTTTCCTACTGCTGACGTGCTAG,2.03
GACAATCTCAGTATCGAGACGTGCTAG,0.047
TCATCTTTCTGTCAGTTACTGTGCTAG,2.2
TACGGACTGGACACTGGGGACGTGCTA,-0.771
GACGGACTGGGGACTGGGTACGTGCTA,-0.801
TTAGAACTGAATCTCGATTAGTGCTAG,-0.385
GACGGTTTCCTACTCCTGACGTGCTAG,2.34
TCATTTTGGTTTCTGGTACTGTGCTAG,4.5
